{"data": "Results collected from several papers", "target": "Solute carrier organic anion transporter family member 1B1 (SLCO1B1, Homo sapiens, UniProt Q9Y6L6)", "Residues used in one study (Q9Y6L6 1-691)": "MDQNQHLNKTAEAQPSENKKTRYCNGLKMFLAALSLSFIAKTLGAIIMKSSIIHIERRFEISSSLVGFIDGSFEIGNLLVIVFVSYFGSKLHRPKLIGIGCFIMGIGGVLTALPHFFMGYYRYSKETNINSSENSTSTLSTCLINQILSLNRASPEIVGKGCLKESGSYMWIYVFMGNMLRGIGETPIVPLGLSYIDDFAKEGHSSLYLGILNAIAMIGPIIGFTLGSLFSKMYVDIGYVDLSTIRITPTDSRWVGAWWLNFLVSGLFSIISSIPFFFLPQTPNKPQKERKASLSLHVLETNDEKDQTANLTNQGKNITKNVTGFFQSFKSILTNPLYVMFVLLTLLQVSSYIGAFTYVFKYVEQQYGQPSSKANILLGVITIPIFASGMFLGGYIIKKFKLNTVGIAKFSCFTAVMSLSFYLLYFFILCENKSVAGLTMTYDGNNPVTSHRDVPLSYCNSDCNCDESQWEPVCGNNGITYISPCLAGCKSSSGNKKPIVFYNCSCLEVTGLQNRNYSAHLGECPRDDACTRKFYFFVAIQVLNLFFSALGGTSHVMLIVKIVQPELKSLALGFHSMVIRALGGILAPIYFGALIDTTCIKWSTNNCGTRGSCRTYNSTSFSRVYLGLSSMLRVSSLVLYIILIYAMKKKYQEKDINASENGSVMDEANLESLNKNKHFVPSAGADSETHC", "note": "Lines come from different studies, so protocols differ. Numbers after ± are the reported error."}
{"Structure (SMILES)": "O=C(O[C@H]1[C@@H]2C=CO[C@@H](O[C@@H]3O[C@H](CO)[C@@H](O)[C@H](O)[C@H]3O)[C@@H]2[C@@]2(CO)O[C@@H]12)c1ccc(O)cc1", "assay": "uptake, substrate", "system": "HEK293 overexpressing SLCO1B1", "setting": "5 min", "endpoint": "intrinsic clearance", "result": "0.035 µL/min"}
{"Structure (SMILES)": "CC#CC(=O)N1CCC[C@H]1c1nc(-c2ccc(C(=O)Nc3ccccn3)cc2)c2c(N)nccn12", "assay": "8-fluorescein-cAMP transport", "system": "HEK293 overexpressing SLCO1B1", "setting": "10 µM, 30 min, together with: 8-fluorescein-cAMP 25 µM", "scale": "baseline: DMSO", "endpoint": "uptake", "result": "no effect"}
{"Structure (SMILES)": "CO[C@H]1/C=C/O[C@@]2(C)Oc3c(C)c(O)c4c(O)c(c(/C=N/N5CCN(C)CC5)c(O)c4c3C2=O)NC(=O)/C(C)=C\\C=C\\[C@H](C)[C@H](O)[C@@H](C)[C@@H](O)[C@@H](C)[C@H](OC(C)=O)[C@@H]1C", "assay": "transport, inhibitor", "system": "HEK293 overexpressing SLCO1B1", "setting": "100 µM, together with: estradiol-17β-glucuronide", "scale": "baseline: vehicle", "endpoint": "remaining activity", "result": "0.93 ± 0.83%"}
{"Structure (SMILES)": "O=C(O)c1cc2cc(O)ccc2n1Cc1ccc(Cl)c(C(F)(F)F)c1", "assay": "estradiol 17β-glucuronide uptake, inhibitor", "system": "HEK293 expressing OATP1B1", "setting": "3 µM, together with: [3H]-estradiol 17β-glucuronide", "scale": "baseline: DMSO control", "endpoint": "remaining activity", "result": "1%"}
{"Structure (SMILES)": "CC(=O)c1cc(C(=O)N[C@@H](C)Cn2ccc(-c3ccc(C#N)c(Cl)c3)n2)[nH]n1", "assay": "transporter uptake, inhibitor", "endpoint": "IC50", "result": "> 10000 nM"}
{"Structure (SMILES)": "CO[C@H]1/C=C/O[C@@]2(C)Oc3c(C)c(O)c4c(O)c(c(/C=N/N5CCN(C)CC5)c(O)c4c3C2=O)NC(=O)/C(C)=C\\C=C\\[C@H](C)[C@H](O)[C@@H](C)[C@@H](O)[C@@H](C)[C@H](OC(C)=O)[C@@H]1C", "assay": "transporter uptake, inhibitor", "system": "HEK293 expressing SLCO1B1", "setting": "concentration not given, together with: [3H]estrone-3-sulfate 20 nM", "endpoint": "duration of inhibition after washout", "result": "≥ 40 min"}
{"Structure (SMILES)": "C=CC(=O)N1CCC([C@@H]2CCNc3c(C(N)=O)c(-c4ccc(Oc5ccccc5)cc4)nn32)CC1", "assay": "transport, measured: estradiol-17β-glucuronide uptake", "system": "HEK293 transfected", "setting": "0.05 µM", "scale": "baseline: vehicle", "endpoint": "remaining activity", "result": "94.8 ± 2.3%"}
{"Structure (SMILES)": "C[C@]12CC[C@@H]3c4ccc(O)cc4CC[C@H]3[C@@H]1CC[C@@H]2O[C@@H]1O[C@H](C(=O)O)[C@@H](O)[C@H](O)[C@H]1O", "assay": "transporter uptake, substrate", "endpoint": "Km", "result": "12.8 µM"}
{"Structure (SMILES)": "O=C(/C=C/c1ccc(O)c2c1[C@H](C(=O)O[C@H](Cc1ccc(O)c(O)c1)C(=O)O)[C@@H](c1ccc(O)c(O)c1)O2)O[C@H](Cc1ccc(O)c(O)c1)C(=O)O", "assay": "transporter uptake, inhibitor", "system": "HEK293", "setting": "100 µM", "endpoint": "inhibition", "result": "> 50%"}
{"Structure (SMILES)": "Cc1ccccc1C(=O)Nc1ccc(C(=O)Nc2ccc(Cl)cc2C(=O)CCC(=O)O)c(C)c1", "assay": "estradiol 17β-glucuronide transport", "system": "HEK293 overexpressing OATP1B1", "endpoint": "IC50", "result": "255 nM"}
{"note": "Some of these lines once more:"}
{"Structure (SMILES)": "O=C(O)c1cc2cc(O)ccc2n1Cc1ccc(Cl)c(C(F)(F)F)c1", "assay": "estradiol 17β-glucuronide uptake, inhibitor", "system": "HEK293 expressing OATP1B1", "setting": "3 µM, together with: [3H]-estradiol 17β-glucuronide", "scale": "baseline: DMSO control", "endpoint": "remaining activity", "result": "1%"}
